Results pooled from the literature.
A part holds a random share of what one study measured.

Sample 1
Target: RNA binding protein fox-1 homolog 2, RRM domain, GST-SBP tag (RBFOX2, Homo sapiens, UniProt O43251-10, residues 100-194)
Method: RNA Bind-n-Seq
Form: RNA
Medium: in vitro
Tested at: 365 nM
Notes: natural RNA segment, single round, ends assumed
Reference: no-protein control
Reading: higher = stronger binding
Construct (chain): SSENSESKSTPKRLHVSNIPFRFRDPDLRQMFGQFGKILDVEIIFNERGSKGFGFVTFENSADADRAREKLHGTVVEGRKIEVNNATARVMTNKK
Sequence | RBNS enrichment (R)
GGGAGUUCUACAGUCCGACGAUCCUGUUUUUUGGGGUUUUUUUUUUUUAAGAAAUAUUUUCACUGGUUUUCUGUGACUCUCUAAACACUUCAUCGAAACUAGAAGACUGAAUUAUGAGGAAACUAUUUGGAUUUGGAAUUCUCGGGUGCCAA | 0.483
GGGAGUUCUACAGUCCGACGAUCGGAAGGUGUACUGGACGGCGGAGAGGAGGGCUCCCUGGCCCCUAAGUGUGGAUGCAGAGAGGUGGAGCCCAGGAAGGGUCUCUGCUUAGGCUGCAGGGGUGCCAAUGGCAUGGAAUUCUCGGGUGCCAA | 2.78
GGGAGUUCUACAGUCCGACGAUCAUUGAAGCAGUAGAAAGCGAAAAGGCUGGGCACCAGGCUUCAAUCUCUGAGAAUCUAAACUCUUACCAAAUCUGUGUAUUUUUCUUAAAGGAUGGAAUUCUUUAUGAAGUUGGAAUUCUCGGGUGCCAA | 0.518
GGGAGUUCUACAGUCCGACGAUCUUCCUAGUUUUAUUUUAGCCUUUAUGAGUUAUUUUAUGAUGAAAGAAAAUCUAUAAGCCUAAGUUAUGGCCCAUAGGUUUUGUUAAGGGUUUUCAGAGUGAUUUUCAGGUUGGAAUUCUCGGGUGCCAA | 0.568
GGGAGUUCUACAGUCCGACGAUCCCUAACUCAACUGCUUUGCAAGGGGAAAUCAAGCUGGGAGAAUCUUUUUCUGGCCACCUGUGGGGUAGGUUGUCAAACCAAACAGAGCCACCGUGGGACAUCAAGUGGAAUGGAAUUCUCGGGUGCCAA | 0.288
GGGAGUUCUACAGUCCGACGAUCUAAUGUGAUUUCAGAUGGUCAUCUGGAUUCUCCCACUUCUCUACUCCAUUAUUUCUCUACUUUUCCUUCCAGCAAACCUGAAACGUGAGGGAGAUGGAUUAAUGUGAGUAUGGAAUUCUCGGGUGCCAA | 0.226
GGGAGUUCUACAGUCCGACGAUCGCCAGCCCUGCAGCUUCAGCACCUGCCCCACCCAGAGUGGGAGUCAGGUGGAGCCACCUGCUGGGCUCCCCCAGAACUUUGCACACAUCUUGCUAUGUAUUAGCCGAUGUUGGAAUUCUCGGGUGCCAA | 0.241
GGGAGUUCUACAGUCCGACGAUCCCUCUGGUGCCCACUUUUGUCUCCCACUUUACCAGGUGGGCCACAUGCACUGAGUGUCACUUUGCUGCAGCUCAUUUGUUUCCAAUAAAAGUUUCUGUGACUUAGAUGGAUGGAAUUCUCGGGUGCCAA | 0.222

Sample 2
Target: Sal-like protein 4, full length isoform A (SALL4, Homo sapiens, UniProt Q9UJQ4, residues 1-1053)
UniProt Q9UJQ4, sequence (whole entry, looked up): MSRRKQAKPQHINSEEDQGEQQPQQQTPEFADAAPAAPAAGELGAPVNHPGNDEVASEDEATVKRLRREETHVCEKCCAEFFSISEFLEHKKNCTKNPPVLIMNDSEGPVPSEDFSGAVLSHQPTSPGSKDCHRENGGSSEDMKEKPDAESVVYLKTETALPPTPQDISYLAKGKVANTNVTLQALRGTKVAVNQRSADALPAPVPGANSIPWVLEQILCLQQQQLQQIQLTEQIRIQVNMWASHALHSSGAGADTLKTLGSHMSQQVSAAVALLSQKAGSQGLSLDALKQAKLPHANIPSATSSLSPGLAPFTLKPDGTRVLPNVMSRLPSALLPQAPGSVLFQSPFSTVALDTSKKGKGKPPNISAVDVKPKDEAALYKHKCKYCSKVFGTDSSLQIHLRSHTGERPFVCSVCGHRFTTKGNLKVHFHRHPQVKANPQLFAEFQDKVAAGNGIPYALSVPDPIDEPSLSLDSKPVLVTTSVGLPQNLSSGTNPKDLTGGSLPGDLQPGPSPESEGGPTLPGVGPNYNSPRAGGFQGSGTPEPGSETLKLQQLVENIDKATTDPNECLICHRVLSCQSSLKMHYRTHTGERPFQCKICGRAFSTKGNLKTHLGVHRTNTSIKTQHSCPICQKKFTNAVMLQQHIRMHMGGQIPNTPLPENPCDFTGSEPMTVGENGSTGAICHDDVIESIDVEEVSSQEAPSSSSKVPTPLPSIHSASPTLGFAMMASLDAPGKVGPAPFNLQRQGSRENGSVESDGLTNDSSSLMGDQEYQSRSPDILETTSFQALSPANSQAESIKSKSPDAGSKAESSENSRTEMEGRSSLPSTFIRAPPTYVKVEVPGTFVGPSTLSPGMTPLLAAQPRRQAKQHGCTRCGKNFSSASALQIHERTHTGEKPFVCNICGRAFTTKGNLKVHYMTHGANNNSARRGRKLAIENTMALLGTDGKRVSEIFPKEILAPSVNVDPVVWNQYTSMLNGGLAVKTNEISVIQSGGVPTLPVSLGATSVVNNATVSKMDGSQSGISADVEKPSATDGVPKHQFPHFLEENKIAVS
Method: universal PBM
Form: double-stranded DNA, one strand shown
Medium: in vitro
Tested at: 600 nM
Notes: 8-mer, flanks averaged, mean of replicates
Reading: higher = stronger binding
Sequence | E-score
AACAACCC | -0.0761
GCTCCTAC | -0.125
ACCCCGTA | -0.0503
CCGTATCG | -0.262
AGGCTACA | 0.0242
TCCGCAAA | 0.0842
CCTTACTC | -0.0443
AGTCTGAT | 0.0471
GGCTGTAC | -0.261
TAAGGCTA | 0.0823
ATAGGGTC | -0.15
CGCTCACA | -0.174
CTGACTTC | -0.132
AATTTGCT | 0.234
AATGCTCG | 0.111
CGACTGCA | -0.0999
GCCGGACC | -0.384
AAAGCACT | 0.0775
AGGCCAGG | -0.231
CTTCATGA | 0.115
CAAAGCTA | 0.174
GAGAACAA | 0.132
TAATGAAA | 0.374

Sample 3
Target: Prothrombin, mature alpha-thrombin (F2, Homo sapiens, UniProt P00734)
Method: aptamer microarray, sandwich
Form: DNA with 2'F-ANA
Medium: in vitro
Tested at: 200 nM
Notes: whole 15-mer aptamer, many near background
Added: Cy3 exosite-II aptamer, 400 nM
Reading: higher = stronger binding
Sequence: GGTTGGTGTGGTTGG
Modification | mean fluorescence intensity [a.u.]
2'F-ANA at 2 5 6 7 8 11 | 67.5
2'F-ANA at 2 6 7 13 15 | 273
2'F-ANA at 1 5 6 7 9 15 | 59.1
2'F-ANA at 2 4 6 9 10 11 12 13 | 88.7
2'F-ANA at 2 3 4 9 15 | 616
2'F-ANA at 1 2 6 9 10 11 | 53.5
2'F-ANA at 1 10 11 13 | 48.7
2'F-ANA at 3 4 6 8 9 10 11 12 14 | 207
2'F-ANA at 1 5 11 12 13 14 15 | 46
2'F-ANA at 1 2 4 9 13 14 | 44.8
2'F-ANA at 1 2 4 5 6 7 8 9 10 11 13 | 96.8
2'F-ANA at 1 2 3 4 5 9 10 11 15 | 51.1
2'F-ANA at 1 3 4 9 10 14 | 51.7
2'F-ANA at 1 2 5 7 8 12 | 122
2'F-ANA at 2 4 6 7 10 12 14 | 58.7
2'F-ANA at 2 4 7 9 10 11 12 | 124
2'F-ANA at 1 8 12 13 14 15 | 78.9
2'F-ANA at 4 12 | 702
2'F-ANA at 1 2 5 6 7 8 10 12 14 | 55
2'F-ANA at 2 3 4 7 9 11 12 13 14 15 | 244
2'F-ANA at 2 8 9 10 11 12 13 | 142

Sample 4
Target: Interferon regulatory factor 5, full length, phosphomimetic (IRF5, Homo sapiens, UniProt Q13568-2, residues 1-514, S451D/S453D/S456D/S462D)
Method: protein-binding microarray
Form: double-stranded DNA, one strand shown
Medium: in vitro
Tested at: 940 nM top
Notes: 60-bp whole probe
Added: salmon DNA 0.4 mg/ml
Reference: random background probes
Reading: higher = stronger binding
All sequences stand within: GCCTAGCAC … GTCTTGATTCGCTTGACGCTGCTG
Sequence | fitted relative affinity [z-score]
GACGGACTGCACACTGGGGACGTGCTA | -0.232
TCAACCCTCCCTCTGTAACTGTGCTAG | 0.464
TCTGTTTTTGCTTTCCTTCTGTGCTAG | 1.93
TCATTTTTTTCTTTAAAACTGTGCTAG | 0.52
GTAGGACTGCTTATCCTTTAGTGCTAG | -0.422
TTAGGACTGCTTATTCTTTAGTGCTAG | -0.0115
TGGAGTCTCTGTTCTTTTCAGTGCTAG | 2.34
GACGGTCTTGGTTTCGGGACGTGCTAG | 4.92
TTTGGTCTCCTTATCCTTTAGTGCTAG | 1.18
GACCTTCACCTCTCTGTCCCCGTGCTA | 1.02
TAAGGTTTCGGTTCCGGTTAGTGCTAG | 12.6
TTAGGTTTTGACTTTCGGTTAGTGCTA | 3.49
TTAGGTATCGGACAGGGTTAGTGCTAG | 3.52
GGCAATTTGAGTCACTGTGTGTGCTAG | -0.506
TTAGGACTGGGACGGGGTTAGTGCTAG | 0.000469
GAAGATTTCGGGTATCGAGACGTGCTA | 1.39
GACGGTATCCGGTATCGGGACGTGCTA | 1.53
GACGATCTCCTTCTCCTGACGTGCTAG | 0.301
TTCGGTATCGGGTATCGGTTAGTGCTA | 7.5

A few entries again (sample 2):
Sequence | E-score
GCTCCTAC | -0.125
CTGACTTC | -0.132
AGGCCAGG | -0.231
ACCCCGTA | -0.0503
TCCGCAAA | 0.0842
AAAGCACT | 0.0775
